Experimental data of several laboratories.
A part holds a random share of what one study measured.
UniProt P07947, sequence (whole entry, looked up): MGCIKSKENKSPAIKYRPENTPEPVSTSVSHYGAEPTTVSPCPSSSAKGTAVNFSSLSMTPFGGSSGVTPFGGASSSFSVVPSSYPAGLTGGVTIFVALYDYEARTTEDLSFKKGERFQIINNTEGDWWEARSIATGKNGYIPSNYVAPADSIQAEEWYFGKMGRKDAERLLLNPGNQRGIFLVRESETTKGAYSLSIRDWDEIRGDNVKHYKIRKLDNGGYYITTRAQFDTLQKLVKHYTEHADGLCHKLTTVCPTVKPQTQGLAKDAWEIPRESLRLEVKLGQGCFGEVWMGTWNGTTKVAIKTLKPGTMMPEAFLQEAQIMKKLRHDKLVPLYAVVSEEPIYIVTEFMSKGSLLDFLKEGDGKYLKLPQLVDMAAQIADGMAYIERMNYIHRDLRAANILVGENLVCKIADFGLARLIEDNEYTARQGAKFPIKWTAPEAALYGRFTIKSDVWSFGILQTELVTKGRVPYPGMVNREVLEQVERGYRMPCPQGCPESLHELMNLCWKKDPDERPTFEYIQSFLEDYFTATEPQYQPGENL
UniProt Q13546, sequence (whole entry, looked up): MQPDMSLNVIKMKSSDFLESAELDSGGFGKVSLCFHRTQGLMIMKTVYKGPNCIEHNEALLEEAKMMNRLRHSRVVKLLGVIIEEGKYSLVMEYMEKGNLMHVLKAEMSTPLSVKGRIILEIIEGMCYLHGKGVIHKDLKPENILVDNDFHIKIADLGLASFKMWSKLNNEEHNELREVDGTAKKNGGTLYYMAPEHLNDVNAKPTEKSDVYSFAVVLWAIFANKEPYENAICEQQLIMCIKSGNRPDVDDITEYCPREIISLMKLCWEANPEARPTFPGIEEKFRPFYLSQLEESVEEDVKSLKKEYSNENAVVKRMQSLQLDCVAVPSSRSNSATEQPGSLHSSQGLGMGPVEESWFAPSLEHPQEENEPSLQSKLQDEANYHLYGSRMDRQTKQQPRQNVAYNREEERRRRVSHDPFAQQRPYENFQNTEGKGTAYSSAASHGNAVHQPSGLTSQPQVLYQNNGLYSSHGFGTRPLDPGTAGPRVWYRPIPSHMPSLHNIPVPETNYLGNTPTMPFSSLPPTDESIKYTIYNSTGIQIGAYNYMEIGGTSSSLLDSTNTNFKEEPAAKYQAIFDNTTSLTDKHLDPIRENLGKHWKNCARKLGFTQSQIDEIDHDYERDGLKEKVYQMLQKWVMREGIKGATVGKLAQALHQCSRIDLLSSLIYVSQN
UniProt Q99558, sequence (whole entry, looked up): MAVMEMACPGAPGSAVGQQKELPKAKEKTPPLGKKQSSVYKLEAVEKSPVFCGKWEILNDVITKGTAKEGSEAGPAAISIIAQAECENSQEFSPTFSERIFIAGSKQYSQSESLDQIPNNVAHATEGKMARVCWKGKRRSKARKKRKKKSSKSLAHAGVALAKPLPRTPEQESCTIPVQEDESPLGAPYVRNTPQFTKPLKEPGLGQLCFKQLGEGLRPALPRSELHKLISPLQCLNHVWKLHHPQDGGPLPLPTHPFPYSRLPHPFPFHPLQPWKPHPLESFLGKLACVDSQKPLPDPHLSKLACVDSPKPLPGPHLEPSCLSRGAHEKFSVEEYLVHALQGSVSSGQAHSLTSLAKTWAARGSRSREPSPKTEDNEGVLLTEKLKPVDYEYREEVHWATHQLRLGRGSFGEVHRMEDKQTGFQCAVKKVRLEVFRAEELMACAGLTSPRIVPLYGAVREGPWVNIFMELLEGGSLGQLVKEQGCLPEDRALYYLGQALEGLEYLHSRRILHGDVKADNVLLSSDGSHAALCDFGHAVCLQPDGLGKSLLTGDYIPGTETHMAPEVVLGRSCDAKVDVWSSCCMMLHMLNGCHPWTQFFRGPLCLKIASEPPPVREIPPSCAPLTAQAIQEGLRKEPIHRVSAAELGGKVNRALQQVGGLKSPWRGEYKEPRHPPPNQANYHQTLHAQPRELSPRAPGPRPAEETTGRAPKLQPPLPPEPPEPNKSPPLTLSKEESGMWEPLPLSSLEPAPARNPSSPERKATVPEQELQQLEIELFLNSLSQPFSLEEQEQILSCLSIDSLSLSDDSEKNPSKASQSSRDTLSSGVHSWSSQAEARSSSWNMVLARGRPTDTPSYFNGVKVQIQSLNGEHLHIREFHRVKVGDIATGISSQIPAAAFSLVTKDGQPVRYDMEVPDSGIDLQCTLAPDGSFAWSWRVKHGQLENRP
UniProt Q13188, sequence (whole entry, looked up): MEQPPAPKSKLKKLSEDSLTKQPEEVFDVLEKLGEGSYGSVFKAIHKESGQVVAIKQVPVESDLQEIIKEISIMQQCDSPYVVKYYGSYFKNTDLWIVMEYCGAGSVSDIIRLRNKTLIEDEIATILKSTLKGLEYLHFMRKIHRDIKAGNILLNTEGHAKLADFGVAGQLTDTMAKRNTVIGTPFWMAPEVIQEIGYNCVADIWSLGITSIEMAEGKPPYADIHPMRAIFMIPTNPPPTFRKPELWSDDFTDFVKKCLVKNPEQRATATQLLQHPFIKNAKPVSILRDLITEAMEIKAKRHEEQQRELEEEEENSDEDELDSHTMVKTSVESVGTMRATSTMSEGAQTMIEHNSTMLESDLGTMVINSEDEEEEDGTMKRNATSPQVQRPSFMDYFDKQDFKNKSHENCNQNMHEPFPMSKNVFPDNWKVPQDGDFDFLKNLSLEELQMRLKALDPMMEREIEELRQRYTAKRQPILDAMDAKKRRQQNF
UniProt P0C264, sequence (whole entry, looked up): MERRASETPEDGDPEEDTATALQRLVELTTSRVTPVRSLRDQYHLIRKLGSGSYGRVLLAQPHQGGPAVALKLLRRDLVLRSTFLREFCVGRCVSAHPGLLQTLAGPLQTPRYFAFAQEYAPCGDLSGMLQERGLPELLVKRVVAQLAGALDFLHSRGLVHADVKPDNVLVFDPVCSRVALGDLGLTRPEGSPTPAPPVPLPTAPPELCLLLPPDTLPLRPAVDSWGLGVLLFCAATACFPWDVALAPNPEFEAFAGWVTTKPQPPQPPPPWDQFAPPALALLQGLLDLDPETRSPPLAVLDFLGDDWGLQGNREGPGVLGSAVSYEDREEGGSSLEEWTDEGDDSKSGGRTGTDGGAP

Set 1 — technique: universal PBM; molecule type: double-stranded DNA, one strand shown; matrix: in vitro; concentration: 600 nM; reading: higher = stronger binding
Target: Sal-like protein 4, full length isoform A (SALL4, Homo sapiens, UniProt Q9UJQ4, residues 1-1053)
UniProt Q9UJQ4, sequence (whole entry, looked up): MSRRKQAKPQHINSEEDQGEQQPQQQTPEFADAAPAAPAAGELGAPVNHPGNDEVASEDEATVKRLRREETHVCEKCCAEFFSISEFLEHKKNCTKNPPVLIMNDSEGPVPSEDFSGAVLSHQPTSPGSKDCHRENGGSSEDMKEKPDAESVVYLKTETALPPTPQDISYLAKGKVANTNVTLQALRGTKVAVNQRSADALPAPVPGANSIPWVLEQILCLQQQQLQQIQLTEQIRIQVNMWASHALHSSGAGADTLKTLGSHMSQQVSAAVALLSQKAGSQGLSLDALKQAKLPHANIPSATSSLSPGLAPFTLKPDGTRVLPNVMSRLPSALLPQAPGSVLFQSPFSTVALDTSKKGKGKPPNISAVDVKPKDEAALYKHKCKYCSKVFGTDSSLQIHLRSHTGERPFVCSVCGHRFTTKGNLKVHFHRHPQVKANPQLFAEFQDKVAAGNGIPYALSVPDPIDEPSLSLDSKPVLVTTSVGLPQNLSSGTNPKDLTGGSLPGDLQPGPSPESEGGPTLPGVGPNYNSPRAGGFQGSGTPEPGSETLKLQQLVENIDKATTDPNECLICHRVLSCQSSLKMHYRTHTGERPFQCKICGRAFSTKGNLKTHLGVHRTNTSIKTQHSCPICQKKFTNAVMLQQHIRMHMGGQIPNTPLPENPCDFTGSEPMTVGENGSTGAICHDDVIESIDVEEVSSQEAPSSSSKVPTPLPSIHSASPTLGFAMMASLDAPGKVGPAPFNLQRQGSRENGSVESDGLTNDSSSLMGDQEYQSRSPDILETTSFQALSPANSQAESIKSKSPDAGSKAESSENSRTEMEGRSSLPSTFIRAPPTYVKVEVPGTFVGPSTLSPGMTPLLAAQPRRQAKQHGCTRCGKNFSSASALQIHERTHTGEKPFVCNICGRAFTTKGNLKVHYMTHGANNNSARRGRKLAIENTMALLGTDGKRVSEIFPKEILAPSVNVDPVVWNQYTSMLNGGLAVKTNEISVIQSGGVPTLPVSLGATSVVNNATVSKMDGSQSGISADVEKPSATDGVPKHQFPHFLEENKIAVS
Setting: 8-mer, flanks averaged, mean of replicates
Sequence | E-score
CTGCTCGC | -0.201
ATACTCTC | 0.227
AGCCACGA | -0.188
CTCGTCTC | -0.15
AGGCTCGA | -0.0402
CACGCGCC | -0.274
CAATCAAG | 0.0287
AAAGCACC | -0.137

Set 2 — read-out: cell-free assay; technique: competition with immobilised ligand; concentration: 1 µM
SMILES: CN(C)CC#Cc1ccc(OCCCc2sc(N3CCc4cccc(C(=O)Nc5nc6ccccc6s5)c4C3)nc2C(=O)O)c(F)c1
target | remaining binding [%]
RIPK1 (Homo sapiens, UniProt Q13546) | 92
NEK10 (Homo sapiens, UniProt Q6ZWH5) | 87
SBK3 (Homo sapiens, UniProt P0C264) | 100
EGFR (Homo sapiens, UniProt P00533, del752-759) | 100
PRKG1 (Homo sapiens, UniProt Q13976) | 100
RAF1 (Homo sapiens, UniProt P04049) | 97
STK3 (Homo sapiens, UniProt Q13188) | 88
MAP3K14 (Homo sapiens, UniProt Q99558) | 100
YES1 (Homo sapiens, UniProt P07947) | 100
NEK11 (Homo sapiens, UniProt Q8NG66) | 100
MYLK (Homo sapiens, UniProt Q15746) | 81
Tyrosine-protein kinase ABL1, phosphorylated (ABL1, Homo sapiens, UniProt P00519, M351T) | 91
MAP3K11 (Homo sapiens, UniProt Q16584) | 100
Ribosomal protein S6 kinase alpha-4, C-terminal kinase domain (RPS6KA4, Homo sapiens, UniProt O75676) | 96
CDKL5 (Homo sapiens, UniProt O76039) | 96

Set 3 — technique: protein-binding microarray; molecule type: double-stranded DNA, one strand shown; matrix: in vitro; concentration: 940 nM top; setting: 60-bp whole probe; together with: salmon DNA 0.4 mg/ml; reference: random background probes; reading: higher = stronger binding; constant ends, left off below: GCCTAGCAC … GTCTTGATTCGCTTGACGCTGCTG
Target: Interferon regulatory factor 5, full length, phosphomimetic (IRF5, Homo sapiens, UniProt Q13568-2, residues 1-514, S451D/S453D/S456D/S462D)
Sequence | fitted relative affinity [z-score]
GACGGTTTCCTACTACTGACGTGCTAG | 1.5
GACCGACTGGGGTTTCGGGACGTGCTA | 3.09
TCATCTTTCCTCACCATACTGTGCTAG | 1.54
TTAGATATCAGTTTCGCTTAGTGCTAG | 5.21
GGCGAACTGGGGTATCGAGACGTGCTA | 0.861
TCAGCTCTGCGGTTCAGACTGTGCTAG | -0.584
TCAGGTTTCCTTCTCCTTTAGTGCTAG | 1.94
GACGGTCTCGGTATCGGGATGTGCTAG | 4.55

Set 4 — read-out: enzyme activity; action: inhibitor; concentration: 0.5 µM; reference: control
Target: Protein-tyrosine kinase 2-beta (PTK2B, Homo sapiens, UniProt Q14289)
UniProt Q14289, sequence (whole entry, looked up): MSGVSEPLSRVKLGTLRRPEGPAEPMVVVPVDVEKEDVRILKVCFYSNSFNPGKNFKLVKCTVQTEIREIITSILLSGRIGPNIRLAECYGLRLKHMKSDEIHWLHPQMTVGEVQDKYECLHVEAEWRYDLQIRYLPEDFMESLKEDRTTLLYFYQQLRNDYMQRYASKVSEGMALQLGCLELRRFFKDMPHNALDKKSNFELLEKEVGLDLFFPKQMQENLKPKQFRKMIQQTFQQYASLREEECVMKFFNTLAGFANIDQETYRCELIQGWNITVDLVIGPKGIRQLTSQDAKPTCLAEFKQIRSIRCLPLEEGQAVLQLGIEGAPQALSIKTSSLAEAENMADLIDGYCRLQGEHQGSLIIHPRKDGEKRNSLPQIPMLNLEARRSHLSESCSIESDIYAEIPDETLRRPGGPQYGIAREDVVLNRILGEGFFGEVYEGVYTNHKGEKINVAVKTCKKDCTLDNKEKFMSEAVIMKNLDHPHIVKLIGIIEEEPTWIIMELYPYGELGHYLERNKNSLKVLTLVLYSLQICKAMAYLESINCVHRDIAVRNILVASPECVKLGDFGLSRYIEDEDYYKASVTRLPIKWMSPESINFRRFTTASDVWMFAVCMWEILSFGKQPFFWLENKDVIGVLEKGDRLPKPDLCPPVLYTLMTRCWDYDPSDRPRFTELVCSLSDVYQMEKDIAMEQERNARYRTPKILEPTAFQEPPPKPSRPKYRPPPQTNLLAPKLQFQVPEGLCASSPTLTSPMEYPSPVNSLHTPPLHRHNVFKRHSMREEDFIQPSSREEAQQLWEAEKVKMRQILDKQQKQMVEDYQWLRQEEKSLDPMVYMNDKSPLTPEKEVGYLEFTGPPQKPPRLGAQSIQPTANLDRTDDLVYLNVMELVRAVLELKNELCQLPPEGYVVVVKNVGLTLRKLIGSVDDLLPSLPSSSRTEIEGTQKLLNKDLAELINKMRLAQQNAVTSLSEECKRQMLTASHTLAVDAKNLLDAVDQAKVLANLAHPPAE
Structure (SMILES) | remaining activity [%]
Nc1cccc(-c2cc3c(Oc4cccc(O)c4)ncnc3[nH]2)c1 | 65.6
CN(C)C[C@H]1CCn2c(c(C3=C(c4cn(C)c5ccccc45)C(=O)NC3=O)c3ccccc32)C1 | 95.5
CCN(CC)CCNC(=O)c1c(C)[nH]c(/C=C2\C(=O)Nc3ccc(Cl)cc32)c1C | 30.5
O=C(NC(NC(=S)Nc1ccc(F)c([N+](=O)[O-])c1)C(Cl)(Cl)Cl)C(c1ccccc1)c1ccccc1 (stereo not drawn) | 102
CCN(CC)C(=O)c1ccc(Nc2nc(OCC3CCCCC3)c3[nH]cnc3n2)cc1 | 48.7
COc1cc2ncnc(Nc3cccc(Cl)c3)c2cc1OC | 85.3
CCN(CC)CCNC(=O)c1c(C)[nH]c(/C=C2\C(=O)Nc3ccc(F)cc32)c1C | 38.3
CCOc1nc(NC(=O)Cc2cc(OC)ccc2OC)cc(N)c1C#N | 108
N#Cc1c(NC(=O)c2cccc3ccccc23)sc2c1CCCC2 | 108
Cc1cc2ncc(-c3ccccc3)nc2cc1C | 92.1
c1ccc(-c2cnc(Nc3ccc(OCCN4CCCC4)cc3)s2)cc1 | 77.2
O=C(Nc1cccc(Nc2nccc(Nc3cccc(C(F)(F)F)c3)n2)c1)C1CC1 | 90.9
Cc1nc2cc3nc(-c4cccs4)cnc3cc2n1C | 96.4
Cc1cn(-c2cc(NC(=O)c3ccc(C)c(Nc4nccc(-c5cccnc5)n4)c3)cc(C(F)(F)F)c2)cn1 | 94.5
O=C1c2ccccc2-c2n[nH]c3cccc1c23 | 82.2
COc1cc2c(cc1OC)-c1[nH]nc(Nc3cccc(F)c3)c1C2 | 98
N#C/C(=C\c1ccc(O)c(O)c1)C(=O)NCc1ccccc1 | 92.6
O=C1C(Cl)=C(N2C(=O)CCC2=O)C(=O)c2ccccc21 | 105
CN([C@@H](Cc1ccc(OS(=O)(=O)c2cccc3cnccc23)cc1)C(=O)N1CCN(c2ccccc2)CC1)S(=O)(=O)c1cccc2cnccc12 | 103
COc1cc2ncnc(Nc3ccc(O)c(Br)c3)c2cc1OC | 86.9
O=c1cc(-c2cccc3c2Sc2ccccc2S3)oc(N2CCOCC2)c1 | 106
Cn1nc2c3c(cccc31)C(=O)c1ccccc1-2 | 102
Ic1cccc(CSc2nnc(-c3ccncc3)o2)c1 | 92.1

A few entries again (set 4):
Structure (SMILES) | remaining activity [%]
O=C1c2ccccc2-c2n[nH]c3cccc1c23 | 82.2
COc1cc2c(cc1OC)-c1[nH]nc(Nc3cccc(F)c3)c1C2 | 98
N#C/C(=C\c1ccc(O)c(O)c1)C(=O)NCc1ccccc1 | 92.6
O=C1C(Cl)=C(N2C(=O)CCC2=O)C(=O)c2ccccc21 | 105
CN([C@@H](Cc1ccc(OS(=O)(=O)c2cccc3cnccc23)cc1)C(=O)N1CCN(c2ccccc2)CC1)S(=O)(=O)c1cccc2cnccc12 | 103
